{"data": "Published values from different studies", "note": "Lines come from different studies, so protocols differ. Several values in a cell are separate wells, animals, samples, runs or records. Numbers after ± are the reported error."}
{"Compound": "CC(C)(C)[Si](C)(C)Oc1ccc(COC(=O)NNc2ccccc2)cc1", "system": "PBS", "conditions": "23 h, 37 °C", "scale": "relative to: initial amount", "measurement": "remaining fraction", "value": "0.92 and 0.86 and 0.87"}
{"Compound": "O=C(NC1CCC(F)(F)CC1)C(c1cncnc1)N(C(=O)C(F)Cl)c1ccc(OC(F)(F)F)cc1 (centres unmarked)", "system": "human liver microsomes", "conditions": "concentration not given, 0.75 h, pH 7.4", "measurement": "remaining compound", "value": "95.9%"}
{"Compound": "C=CC(=O)Nc1cc(Nc2nccc(-c3cn(C)c4ccccc34)n2)c(OC)cc1N(C)CCNC", "assay": "storage stability", "system": "human dried blood spot", "conditions": "270 ng/mL, 5 h, -80 °C, HQC level", "measurement": "remaining amount", "value": "94.1%"}
{"Compound": "Cc1ccc(C(C)C)cc1.O=C(N=P12CN3CN(CN(C3)C1)C2)c1[c-]cccc1.[Cl-].[Ru+2]", "system": "DMSO-d6", "conditions": "1 month", "measurement": "remaining intact compound", "value": "6%"}
{"Compound": "CSCC[C@@H](N)C(=O)N[C@@H](CC(C)C)C(=O)N[C@@H](CCCNC(=N)N)C(=O)N[C@@H](Cc1c[nH]c2ccccc12)C(=O)N[C@@H](CO)C(=O)N[C@@H](CCCNC(=N)N)C(=O)N[C@@H](CCCCN)C(=O)N[C@@H](CCSC)C(=O)N1CCC[C@H]1C(=O)N[C@@H](CS)C(=O)N[C@H](C(=O)N[C@@H](CO)C(=O)O)C(C)C", "assay": "12G5 competition, SUP-T1 cells", "system": "human plasma", "conditions": "concentration not given, 8 h", "measurement": "remaining activity", "value": "34 ± 11%"}
{"Compound": "N=C(N)NCCC[C@@H]1NC(=O)[C@H](CCCNC(=N)N)NC(=O)[C@@H](C(c2ccccc2)c2ccccc2)NC(=O)[C@H](Cc2c[nH]c3ccccc23)NC(=O)[C@@H](C(c2ccccc2)c2ccccc2)NC(=O)[C@@H](CCCNC(=N)N)NC(=O)[C@@H](CCCNC(=N)N)NC1=O", "assay": "LC-MS", "system": "human plasma", "conditions": "30 min", "measurement": "remaining peptide", "value": "~83.1%"}
{"Compound": "CN(Cc1cc(C2CC2)on1)C(=O)c1cccc(-c2ccc(F)cc2)c1", "system": "human liver microsomes", "conditions": "2 µM, 120 min, pH 7.5, without ABT", "measurement": "remaining compound", "value": "39.6%"}
{"Compound": "CC[C@H](C)[C@@H](C(=O)N[C@@H](CC(C)C)C(=O)N[C@@H](CO)C(=O)N[C@@H](CO)C(=O)N[C@H](C(=O)N[C@@H](CCC(=O)O)C(=O)N[C@H](C(=O)NCC(=O)N[C@@H](CO)C(=O)N[C@@H](CO)C(=O)N[C@H](C(=O)N1C[C@H](O)C[C@H]1C(N)=O)[C@@H](C)O)C(C)C)[C@@H](C)O)N(C)C(=O)[C@H](C)NC(=O)CN(C)C(=O)[C@H](Cc1ccccc1)NC(=O)[C@H](CO)NC(=O)[C@H](CO)NC(=O)[C@H](CCCNC(=N)N)NC(=O)[C@H](CCC(N)=O)NC(=O)[C@H](CC(C)C)NC(=O)[C@H](Cc1ccccc1)NC(=O)[C@H](Cc1c[nH]cn1)NC(=O)[C@H](C)NC(=O)[C@H](CC(C)C)NC(=O)[C@H](CCCNC(=N)N)NC(=O)[C@H](CCC(=O)O)NC(=O)[C@@H](NC(=O)[C@H](C)NC(=O)[C@@H]1CSSC[C@H](NC(=O)[C@H](CCCNC(=N)N)NC(=O)CC[C@H](NC(=O)CCCCCCCCCCCCCCCCCCC(=O)O)C(=O)O)C(=O)NCC(=O)N[C@@H]([C@@H](C)O)C(=O)N[C@@H](C)C(=O)N[C@@H]([C@@H](C)O)C(=O)N1)[C@@H](C)O", "assay": "RP-HPLC", "system": "water", "conditions": "7 days, pH 6.0, 40 °C", "measurement": "remaining main peak", "value": "86 area %"}
{"Compound": "[2H]C([2H])([18F])Oc1cc(C(=O)OCC2CCN(CCCC)CC2)ccc1N", "system": "phosphate buffer", "conditions": "up to 2.5 h, room temperature", "measurement": "remaining radioligand", "value": "99.6 ± 0.04%"}
{"Compound": "CC[C@H](C)[C@@H](C(=O)N[C@@H](CC(C)C)C(=O)N[C@@H](CO)C(=O)N[C@@H](CO)C(=O)N[C@H](C(=O)N[C@@H](CCC(=O)O)C(=O)N[C@H](C(=O)NCC(=O)N[C@@H](CO)C(=O)N[C@@H](CC(N)=O)C(=O)N[C@H](C(=O)N1CCC[C@H]1C(N)=O)[C@@H](C)O)C(C)C)[C@@H](C)O)N(C)C(=O)[C@H](C)NC(=O)CN(C)C(=O)[C@H](Cc1ccccc1)NC(=O)[C@H](CO)NC(=O)[C@H](CO)NC(=O)[C@H](CCCNC(=N)N)NC(=O)[C@H](Cc1c[nH]cn1)NC(=O)[C@H](CC(C)C)NC(=O)[C@H](Cc1ccccc1)NC(=O)[C@H](Cc1c[nH]cn1)NC(=O)[C@H](C)NC(=O)[C@H](CC(C)C)NC(=O)[C@H](CCCNC(=N)N)NC(=O)[C@H](CCC(=O)O)NC(=O)[C@@H](NC(=O)[C@H](C)NC(=O)[C@@H]1CSSC[C@H](NC(=O)[C@H](CCCNC(=N)N)NC(=O)CC[C@H](NC(=O)CCCCCCCCCCCCCCCCCCC(=O)O)C(=O)O)C(=O)NCC(=O)N[C@@H]([C@@H](C)O)C(=O)N[C@@H](C)C(=O)N[C@@H]([C@@H](C)O)C(=O)N1)[C@@H](C)O", "assay": "RP-HPLC", "system": "water", "conditions": "7 days, pH 7.5, 40 °C", "measurement": "remaining main peak", "value": "76 area %"}
{"Compound": "Cc1ccc(C(C)C)cc1.O=C(N=P(c1ccccc1)(c1ccccc1)c1ccccc1)c1ccccn1.[Cl-].[Cl-].[Ru+2]", "system": "DMSO-d6", "conditions": "1 month", "measurement": "remaining intact compound", "value": "87%"}
{"Compound": "CC[C@H](C)[C@@H](C(=O)N[C@@H](CC(C)C)C(=O)N[C@@H](CO)C(=O)N[C@@H](CO)C(=O)N[C@H](C(=O)N[C@@H](CCC(=O)O)C(=O)N[C@H](C(=O)NCC(=O)N[C@@H](CO)C(=O)N[C@@H](CC(N)=O)C(=O)N[C@H](C(=O)N1C[C@H](O)C[C@H]1C(N)=O)[C@@H](C)O)C(C)C)[C@@H](C)O)N(C)C(=O)[C@H](C)NC(=O)CN(C)C(=O)[C@H](Cc1ccccc1)NC(=O)[C@H](CO)NC(=O)[C@H](CO)NC(=O)[C@H](CCCNC(=N)N)NC(=O)[C@H](CC(N)=O)NC(=O)[C@H](CC(C)C)NC(=O)[C@H](Cc1ccccc1)NC(=O)[C@H](Cc1c[nH]cn1)NC(=O)[C@H](C)NC(=O)[C@H](CC(C)C)NC(=O)[C@H](CCCNC(=N)N)NC(=O)[C@H](CCC(=O)O)NC(=O)[C@@H](NC(=O)[C@H](C)NC(=O)[C@@H]1CSSC[C@H](NC(=O)[C@H](CCCNC(=N)N)NC(=O)CC[C@H](NC(=O)CCCCCCCCCCCCCCCCCCC(=O)O)C(=O)O)C(=O)NCC(=O)N[C@@H]([C@@H](C)O)C(=O)N[C@@H](C)C(=O)N[C@@H]([C@@H](C)O)C(=O)N1)[C@@H](C)O", "assay": "RP-HPLC", "system": "water", "conditions": "7 days, pH 6.0, 40 °C", "measurement": "remaining main peak", "value": "80 area %"}
{"Compound": "C[C@](C(=O)NC1CCC(F)(F)CC1)(c1cncnc1)N(C(=O)[C@H](F)Cl)c1ccc(OC(F)(F)F)cc1", "system": "mouse liver microsomes", "conditions": "concentration not given, 0.25 h, pH 7.4", "measurement": "remaining compound", "value": "46.3%"}
{"Compound": "CC[C@H](C)[C@@H](C(=O)N[C@@H](CC(C)C)C(=O)N[C@@H](CO)C(=O)N[C@@H](CO)C(=O)N[C@H](C(=O)N[C@@H](CCC(=O)O)C(=O)N[C@H](C(=O)NCC(=O)N[C@@H](CO)C(=O)N[C@@H](CC(N)=O)C(=O)N[C@H](C(=O)N1C[C@H](O)C[C@H]1C(N)=O)[C@@H](C)O)C(C)C)[C@@H](C)O)N(C)C(=O)[C@H](C)NC(=O)CN(C)C(=O)[C@H](Cc1ccccc1)NC(=O)[C@H](CO)NC(=O)[C@H](CO)NC(=O)[C@H](CCCNC(=N)N)NC(=O)[C@H](CCC(N)=O)NC(=O)[C@H](CC(C)C)NC(=O)[C@H](Cc1ccccc1)NC(=O)[C@H](CCCC(=O)O)NC(=O)[C@H](C)NC(=O)[C@H](CC(C)C)NC(=O)[C@H](CCCNC(=N)N)NC(=O)[C@H](CCC(=O)O)NC(=O)[C@@H](NC(=O)[C@H](C)NC(=O)[C@@H]1CCCCNC(=O)C[C@H](NC(=O)[C@H](CCCNC(=N)N)NC(=O)CC[C@H](NC(=O)CCCCCCCCCCCCCCCCCCC(=O)O)C(=O)O)C(=O)NCC(=O)N[C@@H]([C@@H](C)O)C(=O)N[C@@H](C)C(=O)N[C@@H]([C@@H](C)O)C(=O)N1)[C@@H](C)O", "assay": "RP-HPLC", "system": "water", "conditions": "7 days, pH 7.5, 40 °C", "measurement": "remaining main peak", "value": "97 area %"}
{"Compound": "O=Cc1ccc(-c2cn([C@@H]3O[C@H](COP(=O)(O)OP(=O)(O)O[C@H]4O[C@H](CO)[C@H](O)[C@H](O)[C@H]4O)[C@@H](O)[C@H]3O)c(=O)[nH]c2=O)s1", "assay": "HPLC", "system": "MOPS buffer, no enzyme", "conditions": "24 h, pH 7.2, 37 °C", "measurement": "remaining intact", "value": "> 80%"}
{"Compound": "CC[C@H](C)[C@@H](C(=O)N[C@@H](CC(C)C)C(=O)N[C@@H](CO)C(=O)N[C@@H](CO)C(=O)N[C@H](C(=O)N[C@@H](CCC(=O)O)C(=O)N[C@H](C(=O)NCC(=O)N[C@@H](CO)C(=O)N[C@@H](CCCN)C(=O)N[C@H](C(=O)N1C[C@H](O)C[C@H]1C(N)=O)[C@@H](C)O)C(C)C)[C@@H](C)O)N(C)C(=O)[C@H](C)NC(=O)CN(C)C(=O)[C@H](Cc1ccccc1)NC(=O)[C@H](CO)NC(=O)[C@H](CO)NC(=O)[C@H](CCCNC(=N)N)NC(=O)[C@@H](NC(=O)[C@H](CC(C)C)NC(=O)[C@H](Cc1ccccc1)NC(=O)[C@H](Cc1c[nH]cn1)NC(=O)[C@H](C)NC(=O)[C@H](CC(C)C)NC(=O)[C@H](CCCNC(=N)N)NC(=O)[C@H](CCC(=O)O)NC(=O)[C@@H](NC(=O)[C@H](C)NC(=O)[C@@H]1CSSC[C@H](NC(=O)[C@H](CCCNC(=N)N)NC(=O)CC[C@H](NC(=O)CCCCCCCCCCCCCCCCCCC(=O)O)C(=O)O)C(=O)NCC(=O)N[C@@H]([C@@H](C)O)C(=O)N[C@@H](C)C(=O)N[C@@H]([C@@H](C)O)C(=O)N1)[C@@H](C)O)[C@@H](C)O", "assay": "RP-HPLC", "system": "water", "conditions": "7 days, pH 6.0, 40 °C", "measurement": "remaining main peak", "value": "89 area %"}
{"Compound": "Cc1nc(N)nc2c1C(=O)N[C@@H](c1ccc(F)cc1-c1cccc(OCC[18F])n1)C2", "assay": "HPLC", "system": "mouse serum", "conditions": "100 µM, up to 4 h, 37 °C", "measurement": "remaining intact compound", "value": "98%"}
{"note": "Repeated from above:"}
{"Compound": "C[C@](C(=O)NC1CCC(F)(F)CC1)(c1cncnc1)N(C(=O)[C@H](F)Cl)c1ccc(OC(F)(F)F)cc1", "system": "mouse liver microsomes", "conditions": "concentration not given, 0.25 h, pH 7.4", "measurement": "remaining compound", "value": "46.3%"}
